Results pooled from the literature.
Numbered parts are unrelated; each lists some results of a single study.
UniProt P10721, sequence (whole entry, unmodified, looked up): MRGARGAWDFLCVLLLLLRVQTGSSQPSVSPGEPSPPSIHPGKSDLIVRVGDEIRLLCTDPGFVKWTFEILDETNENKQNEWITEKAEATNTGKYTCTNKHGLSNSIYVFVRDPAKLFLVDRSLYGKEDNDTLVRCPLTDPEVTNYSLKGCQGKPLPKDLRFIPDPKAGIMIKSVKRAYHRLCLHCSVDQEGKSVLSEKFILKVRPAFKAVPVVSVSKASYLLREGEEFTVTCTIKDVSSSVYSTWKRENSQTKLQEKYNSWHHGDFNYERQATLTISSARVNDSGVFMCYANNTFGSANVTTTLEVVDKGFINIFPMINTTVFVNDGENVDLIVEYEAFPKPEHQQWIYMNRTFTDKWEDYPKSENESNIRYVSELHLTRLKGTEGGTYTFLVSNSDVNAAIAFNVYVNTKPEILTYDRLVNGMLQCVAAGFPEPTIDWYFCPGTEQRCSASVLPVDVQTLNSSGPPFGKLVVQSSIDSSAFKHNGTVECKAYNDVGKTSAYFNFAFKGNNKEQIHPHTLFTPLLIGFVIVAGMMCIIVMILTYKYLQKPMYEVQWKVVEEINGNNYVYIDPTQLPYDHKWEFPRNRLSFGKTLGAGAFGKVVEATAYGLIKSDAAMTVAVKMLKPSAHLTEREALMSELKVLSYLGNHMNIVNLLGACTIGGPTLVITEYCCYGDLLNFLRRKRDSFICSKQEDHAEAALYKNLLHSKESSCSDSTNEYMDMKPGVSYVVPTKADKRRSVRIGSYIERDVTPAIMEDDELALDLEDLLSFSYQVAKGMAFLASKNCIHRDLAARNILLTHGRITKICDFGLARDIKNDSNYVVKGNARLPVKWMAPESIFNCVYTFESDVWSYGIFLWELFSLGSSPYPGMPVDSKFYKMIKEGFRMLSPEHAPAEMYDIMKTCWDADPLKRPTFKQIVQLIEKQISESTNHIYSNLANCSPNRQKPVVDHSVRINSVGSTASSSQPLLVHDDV
UniProt Q00532, sequence (whole entry, looked up): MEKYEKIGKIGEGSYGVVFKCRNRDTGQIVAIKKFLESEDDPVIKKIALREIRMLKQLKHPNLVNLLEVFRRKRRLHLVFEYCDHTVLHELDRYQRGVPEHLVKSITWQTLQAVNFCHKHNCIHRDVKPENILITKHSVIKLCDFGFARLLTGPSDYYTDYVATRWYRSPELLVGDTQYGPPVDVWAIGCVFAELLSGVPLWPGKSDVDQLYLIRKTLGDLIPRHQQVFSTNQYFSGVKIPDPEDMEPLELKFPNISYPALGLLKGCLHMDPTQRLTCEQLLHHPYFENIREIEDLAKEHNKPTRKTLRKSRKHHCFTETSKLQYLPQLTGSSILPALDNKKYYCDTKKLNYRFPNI
UniProt Q9NRM7, sequence (whole entry, looked up): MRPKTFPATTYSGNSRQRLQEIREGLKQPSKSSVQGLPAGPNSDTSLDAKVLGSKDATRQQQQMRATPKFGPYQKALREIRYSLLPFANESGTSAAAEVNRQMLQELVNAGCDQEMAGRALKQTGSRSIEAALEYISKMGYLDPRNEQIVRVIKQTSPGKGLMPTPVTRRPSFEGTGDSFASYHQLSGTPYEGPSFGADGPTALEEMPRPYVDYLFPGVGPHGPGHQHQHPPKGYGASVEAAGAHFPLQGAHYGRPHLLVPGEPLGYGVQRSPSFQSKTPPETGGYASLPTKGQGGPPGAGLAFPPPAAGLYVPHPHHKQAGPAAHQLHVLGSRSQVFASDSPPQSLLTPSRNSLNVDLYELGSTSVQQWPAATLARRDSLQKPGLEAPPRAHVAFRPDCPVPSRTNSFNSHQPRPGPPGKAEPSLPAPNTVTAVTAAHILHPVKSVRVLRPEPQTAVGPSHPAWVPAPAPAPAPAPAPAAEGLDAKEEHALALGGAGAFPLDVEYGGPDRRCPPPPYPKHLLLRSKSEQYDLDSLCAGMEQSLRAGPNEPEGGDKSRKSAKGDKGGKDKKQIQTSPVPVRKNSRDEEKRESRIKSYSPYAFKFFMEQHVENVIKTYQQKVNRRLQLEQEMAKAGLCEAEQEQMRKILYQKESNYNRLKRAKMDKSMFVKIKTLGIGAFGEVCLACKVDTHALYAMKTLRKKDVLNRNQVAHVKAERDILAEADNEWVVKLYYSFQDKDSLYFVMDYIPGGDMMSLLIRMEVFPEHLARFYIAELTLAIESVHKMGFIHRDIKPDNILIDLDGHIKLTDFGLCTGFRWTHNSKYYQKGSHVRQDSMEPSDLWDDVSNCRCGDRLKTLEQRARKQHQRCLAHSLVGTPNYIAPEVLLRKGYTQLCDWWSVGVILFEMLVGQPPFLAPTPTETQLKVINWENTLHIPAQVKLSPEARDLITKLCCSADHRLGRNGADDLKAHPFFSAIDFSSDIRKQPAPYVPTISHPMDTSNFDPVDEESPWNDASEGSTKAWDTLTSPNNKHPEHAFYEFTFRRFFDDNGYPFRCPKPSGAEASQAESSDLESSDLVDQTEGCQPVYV
UniProt O75676, sequence (whole entry, looked up): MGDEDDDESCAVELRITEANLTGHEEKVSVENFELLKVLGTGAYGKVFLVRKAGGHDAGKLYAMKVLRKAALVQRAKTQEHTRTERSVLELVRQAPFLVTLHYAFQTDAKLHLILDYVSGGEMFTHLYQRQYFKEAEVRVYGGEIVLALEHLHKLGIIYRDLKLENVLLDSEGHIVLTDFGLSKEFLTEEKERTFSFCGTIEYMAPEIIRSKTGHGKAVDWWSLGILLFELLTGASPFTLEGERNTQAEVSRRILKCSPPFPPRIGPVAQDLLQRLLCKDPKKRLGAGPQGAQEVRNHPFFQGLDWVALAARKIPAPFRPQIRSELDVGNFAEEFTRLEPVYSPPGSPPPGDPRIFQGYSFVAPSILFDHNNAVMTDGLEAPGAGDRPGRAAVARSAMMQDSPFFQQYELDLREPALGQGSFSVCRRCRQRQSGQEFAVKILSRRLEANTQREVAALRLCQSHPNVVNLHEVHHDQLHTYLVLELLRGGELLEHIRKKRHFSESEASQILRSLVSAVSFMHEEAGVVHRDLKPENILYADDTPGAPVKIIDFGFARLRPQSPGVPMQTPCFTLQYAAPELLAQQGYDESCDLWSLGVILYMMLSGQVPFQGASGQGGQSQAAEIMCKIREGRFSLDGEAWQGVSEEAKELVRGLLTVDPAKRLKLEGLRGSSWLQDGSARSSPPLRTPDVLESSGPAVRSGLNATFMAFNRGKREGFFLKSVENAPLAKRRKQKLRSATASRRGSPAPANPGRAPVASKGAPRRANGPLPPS
UniProt Q6ZWH5, sequence (whole entry, looked up): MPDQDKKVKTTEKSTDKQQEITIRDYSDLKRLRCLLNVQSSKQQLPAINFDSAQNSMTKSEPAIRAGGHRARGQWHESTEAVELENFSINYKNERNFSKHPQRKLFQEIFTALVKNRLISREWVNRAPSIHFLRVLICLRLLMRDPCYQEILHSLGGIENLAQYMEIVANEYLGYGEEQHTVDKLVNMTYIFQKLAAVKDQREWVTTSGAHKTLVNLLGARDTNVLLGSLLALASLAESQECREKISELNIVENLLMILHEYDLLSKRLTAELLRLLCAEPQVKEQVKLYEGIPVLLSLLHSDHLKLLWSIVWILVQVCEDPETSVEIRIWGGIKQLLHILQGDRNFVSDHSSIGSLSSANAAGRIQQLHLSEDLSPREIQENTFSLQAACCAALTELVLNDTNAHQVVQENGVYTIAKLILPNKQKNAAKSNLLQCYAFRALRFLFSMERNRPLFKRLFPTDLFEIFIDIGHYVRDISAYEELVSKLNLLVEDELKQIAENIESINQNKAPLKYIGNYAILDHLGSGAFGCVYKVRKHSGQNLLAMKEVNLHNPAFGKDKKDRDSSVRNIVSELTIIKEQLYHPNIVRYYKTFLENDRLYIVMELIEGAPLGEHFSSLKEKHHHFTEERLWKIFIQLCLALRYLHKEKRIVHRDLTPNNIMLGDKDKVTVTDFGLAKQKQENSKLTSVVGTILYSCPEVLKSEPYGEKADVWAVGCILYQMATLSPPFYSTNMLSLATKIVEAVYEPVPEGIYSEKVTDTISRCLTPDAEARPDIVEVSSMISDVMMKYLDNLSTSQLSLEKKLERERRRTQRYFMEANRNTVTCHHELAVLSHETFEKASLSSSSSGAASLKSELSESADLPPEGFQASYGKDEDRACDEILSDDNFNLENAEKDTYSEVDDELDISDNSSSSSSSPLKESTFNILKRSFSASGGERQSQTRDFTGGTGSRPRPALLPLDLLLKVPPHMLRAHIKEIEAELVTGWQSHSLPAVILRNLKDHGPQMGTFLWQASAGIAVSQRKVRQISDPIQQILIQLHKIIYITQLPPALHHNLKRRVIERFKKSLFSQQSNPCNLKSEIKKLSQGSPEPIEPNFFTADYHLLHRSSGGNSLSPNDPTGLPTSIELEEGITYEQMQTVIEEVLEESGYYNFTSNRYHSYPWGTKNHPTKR
UniProt Q9UPZ9, sequence (whole entry, looked up): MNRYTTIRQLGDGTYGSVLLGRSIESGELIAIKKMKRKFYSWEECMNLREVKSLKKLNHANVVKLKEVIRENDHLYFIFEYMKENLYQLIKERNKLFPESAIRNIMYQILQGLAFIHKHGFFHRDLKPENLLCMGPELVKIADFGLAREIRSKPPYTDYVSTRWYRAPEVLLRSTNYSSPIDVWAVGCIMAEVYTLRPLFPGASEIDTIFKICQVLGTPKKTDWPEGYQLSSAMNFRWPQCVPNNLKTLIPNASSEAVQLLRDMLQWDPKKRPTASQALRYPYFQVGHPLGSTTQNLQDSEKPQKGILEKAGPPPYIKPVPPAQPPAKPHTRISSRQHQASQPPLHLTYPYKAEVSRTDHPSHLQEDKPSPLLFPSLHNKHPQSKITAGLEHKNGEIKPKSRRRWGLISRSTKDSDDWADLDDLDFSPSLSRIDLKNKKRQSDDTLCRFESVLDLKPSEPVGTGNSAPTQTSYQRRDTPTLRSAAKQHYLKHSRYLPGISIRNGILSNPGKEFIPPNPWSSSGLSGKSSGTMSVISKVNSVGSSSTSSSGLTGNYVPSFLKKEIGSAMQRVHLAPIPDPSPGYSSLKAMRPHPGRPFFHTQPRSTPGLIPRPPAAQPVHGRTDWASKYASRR

Sample 1 — organism: Sarcocystis neurona; observed: parasite growth; concentration: 10 µM; time: 96 h; setting: first screen; relative to: untreated
Compound	log2 fold change
Cc1ccnc2c1NC(=O)c1cccnc1N2C1CC1	0.13
CC(=O)CC(c1ccccc1)c1c(O)c2ccccc2oc1=O (stereo not shown)	0.06
CCC1(c2ccccc2)C(=O)NCNC1=O	0.33
C#C[C@]1(O)CC[C@H]2[C@@H]3CCc4cc(O)ccc4[C@H]3CC[C@@]21C	0.21
O=c1c(O[C@@H]2O[C@H](CO)[C@@H](O)[C@H](O)[C@H]2O)c(-c2ccc(O)c(O)c2)oc2cc(O)cc(O)c12	0.16
CN1CCN(CCCN2c3ccccc3Sc3ccc(Cl)cc32)CC1	-0.56
CC(C)NCC(O)c1ccc(NS(C)(=O)=O)cc1 (stereo not shown)	0.0568
NS(=O)(=O)c1cc(C2(O)NC(=O)c3ccccc32)ccc1Cl (stereo not shown)	0.33
CC(COc1ccccc1)N(CCCl)Cc1ccccc1 (stereo not shown)	0.32
Cc1ccc(N(CC2=NCCN2)c2cccc(O)c2)cc1	0.23
CN(C)CCC[C@@]1(c2ccc(F)cc2)OCc2cc(C#N)ccc21	-0.32
CC(Oc1c(Cl)cccc1Cl)C1=NCCN1 (stereo not shown)	-0.12
COCc1c(C(C)C)nc(C(C)C)c(/C=C/[C@@H](O)C[C@@H](O)CC(=O)O)c1-c1ccc(F)cc1	-0.5
CCc1oc2ccccc2c1C(=O)c1cc(Br)c(O)c(Br)c1	-0.06
COc1cc(C)c(Cc2cnc(N)nc2N)cc1OC	-1.94
C[C@](N)(Cc1ccc(O)c(O)c1)C(=O)O	0.23
CC(C)[C@H]1CC[C@H](C(=O)N[C@H](Cc2ccccc2)C(=O)O)CC1	0.25

Sample 2 — dose: dose not given; relative to: vehicle
SMILES: CC(=O)N[C@@H](Cc1c[nH]c2ccccc12)C(=O)N[C@@H](CCC(=O)C=[N+]=[N-])C(=O)OC(C)C
technique	refers to	host	sample	log2 fold change
	threonate	mouse, EL4 tumour-bearing	EL4 tumour	0.16
metabolomics	ascorbic acid 3-sulfate	mouse	EL4 tumour	0.401
metabolomics	adenosine 3',5'-diphosphate	mouse	EL4 tumour	0.241
	2'-deoxyinosine	mouse, EL4 tumour-bearing	EL4 tumour	-0.0471
	methionine sulfoxide	mouse, EL4 tumour-bearing	EL4 tumour	0.265
	4-imidazoleacetate	mouse, EL4 tumour-bearing	EL4 tumour	-0.297
	ascorbate	mouse, EL4 tumour	tumour	-0.344
	3-methoxytyrosine	mouse, EL4 tumour-bearing	EL4 tumour	-0.824
	indolepropionate	mouse, EL4 tumour-bearing	EL4 tumour	1.11
	pyruvate	mouse, EL4 tumour-bearing	EL4 tumour	-0.339
	pyridoxal	mouse, EL4 tumour-bearing	EL4 tumour	0.352
	gluconate	mouse, EL4 tumour-bearing	EL4 tumour	0.9
	N-acetyl-glucosamine 1-phosphate	mouse, EL4 tumour-bearing	EL4 tumour	0.594
	imidazole propionate	Mus musculus	EL4 tumour	-0.941
metabolomics	2-hydroxy-4-(methylthio)butanoic acid	mouse	EL4 tumour	-1.34
	riboflavin	mouse, EL4 tumour	tumour	-0.398
	glucose	mouse, EL4 tumour-bearing	EL4 tumour	2.07
	N-acetylmethionine sulfoxide	mouse, EL4 tumour-bearing	EL4 tumour	0.773
	gamma-aminobutyrate	Mus musculus	EL4 tumour	-0.344
	3-indoxyl sulfate	mouse, EL4 tumour-bearing	EL4 tumour	0.365

Sample 3 — technique: competition with immobilised ligand; concentration: 1 µM
Compound: O=C(Nc1ccc(Oc2ccc(F)cc2)cc1)N1CCc2ncccc2[C@H]1c1ccc(F)cc1
target	observed	remaining binding [%]
MAP4K5 (Homo sapiens, UniProt Q9Y4K4)	cell-free assay	91
DDR1 (Homo sapiens, UniProt Q08345)	cell-free assay	100
CLK1 (Homo sapiens, UniProt P49759)	cell-free assay	86
CLK4 (Homo sapiens, UniProt Q9HAZ1)	cell-free assay	100
PKN1 (Homo sapiens, UniProt Q16512)	cell-free assay	100
TAOK1 (Homo sapiens, UniProt Q7L7X3)	cell-free assay	100
NEK10 (Homo sapiens, UniProt Q6ZWH5)	cell-free assay	100
LATS2 (Homo sapiens, UniProt Q9NRM7)	cell-free assay	100
CDKL1 (Homo sapiens, UniProt Q00532)	cell-free assay	97
TNK2 (Homo sapiens, UniProt Q07912)	cell-free assay	99
FGFR2 (Homo sapiens, UniProt P21802)	cell-free assay	93
PRKCD (Homo sapiens, UniProt Q05655)	cell-free assay	100
KIT (Homo sapiens, UniProt P10721, L576P)	cell-free assay	100
PIKFYVE (Homo sapiens, UniProt Q9Y2I7)	cell-free assay	95
KIT (Homo sapiens, UniProt P10721, T670I/V559D)	cell-free assay	85
CILK1 (Homo sapiens, UniProt Q9UPZ9)	binding	76
Ribosomal protein S6 kinase alpha-4, C-terminal kinase domain (RPS6KA4, Homo sapiens, UniProt O75676)	cell-free assay	73
KIT (Homo sapiens, UniProt P10721, D816V)	cell-free assay	100

Sample 4 — observed: enzyme activity; mode: inhibitor; concentration: 0.5 µM; relative to: control
Target: Serine/threonine-protein kinase Nek11 (NEK11, Homo sapiens, UniProt Q8NG66)
Residues (Q8NG66 1-645): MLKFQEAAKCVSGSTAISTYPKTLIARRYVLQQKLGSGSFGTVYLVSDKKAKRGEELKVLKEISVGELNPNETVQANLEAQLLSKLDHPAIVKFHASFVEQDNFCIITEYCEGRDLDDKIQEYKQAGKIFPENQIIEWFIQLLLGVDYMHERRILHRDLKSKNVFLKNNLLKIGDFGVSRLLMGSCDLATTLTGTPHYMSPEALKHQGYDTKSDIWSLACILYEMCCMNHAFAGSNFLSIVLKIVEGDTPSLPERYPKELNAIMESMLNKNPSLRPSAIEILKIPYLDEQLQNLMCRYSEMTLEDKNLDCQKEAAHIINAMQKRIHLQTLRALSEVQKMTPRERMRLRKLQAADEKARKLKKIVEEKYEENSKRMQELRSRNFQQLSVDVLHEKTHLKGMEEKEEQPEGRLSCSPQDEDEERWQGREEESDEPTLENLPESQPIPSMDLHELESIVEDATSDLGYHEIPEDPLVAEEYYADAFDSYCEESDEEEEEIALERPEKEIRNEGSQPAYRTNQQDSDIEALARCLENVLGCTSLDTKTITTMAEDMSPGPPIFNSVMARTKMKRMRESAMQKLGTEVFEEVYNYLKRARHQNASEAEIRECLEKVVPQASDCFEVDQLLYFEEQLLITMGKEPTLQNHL
Structure (SMILES)	remaining activity [%]
CSc1nc(-c2ccnc(N[C@@H](C)c3ccccc3)c2)c(-c2ccc(F)cc2)[nH]1 (racemic)	108
CC#CC(=O)Nc1cc2c(Nc3ccc(F)c(Cl)c3)ncnc2cn1	86.6
Nc1nc(Nc2ccc(S(N)(=O)=O)cc2)nn1C(=O)c1c(F)cccc1F	95.8
Cc1ccc(NC2=CC(=O)c3sc(C)nc3C2=O)cc1	98.3
CCCC(=O)Oc1ccc2[nH]c(C(=O)c3cc4ccccc4[nH]3)cc2c1	101
O=S(=O)(NCCNC/C=C/c1ccc(Br)cc1)c1cccc2cnccc12	92.7
Oc1ccc(Nc2nc(-c3ccc(Cl)cc3)cs2)cc1	77.1
CC(C)(C)n1nc(Cc2cccc3ccccc23)c2c(N)ncnc21	99.3
COc1ccc(S(=O)(=O)N(CCO)c2ccccc2CN(C)CC=Cc2ccc(Cl)cc2)cc1	105
O=C1Cc2c([nH]c3ccc([N+](=O)[O-])cc23)-c2ccccc2N1	95.4
Cc1cc(Nc2nc(-c3ccccc3)nc3ccccc23)n[nH]1	105
Nc1nccc(-c2c(-c3ccc(F)cc3)ncn2C2CCNCC2)n1	105
CC[n+]1c(/C=C/N(C)c2ccccc2)n(-c2ccccc2)c2ccc(-c3nc4ccccc4s3)cc21	91.6
CC(=O)c1ccc(N2CCOCC2)cc1O	98.6
Fc1ccc(-c2nc3n(c2-c2ccncc2)CCS3)cc1	71.4
Cc1cncc2cccc(S(=O)(=O)N3CCCN(C(=O)CN)C[C@@H]3C)c12	84.2
NC(=O)c1ccc(N(C(N)=O)c2c(F)cccc2F)nc1-c1ccc(F)cc1F	92.9
N#CC(=C(N)Sc1ccc(N)cc1)c1ccccc1C(F)(F)F	97.7
O=C1NC(=O)C(c2c[nH]c3ccccc23)=C1c1c[nH]c2ccccc12	108
Nc1ncnc2c1cnn2-c1ccccc1	107
CCc1[nH]c(-c2ccc(OC)cc2)nc1-c1ccncc1	77.4

A few entries again (sample 1):
Compound	log2 fold change
COCc1c(C(C)C)nc(C(C)C)c(/C=C/[C@@H](O)C[C@@H](O)CC(=O)O)c1-c1ccc(F)cc1	-0.5
CCC1(c2ccccc2)C(=O)NCNC1=O	0.33
CC(C)[C@H]1CC[C@H](C(=O)N[C@H](Cc2ccccc2)C(=O)O)CC1	0.25
C[C@](N)(Cc1ccc(O)c(O)c1)C(=O)O	0.23
CN(C)CCC[C@@]1(c2ccc(F)cc2)OCc2cc(C#N)ccc21	-0.32
CCc1oc2ccccc2c1C(=O)c1cc(Br)c(O)c(Br)c1	-0.06
NS(=O)(=O)c1cc(C2(O)NC(=O)c3ccccc32)ccc1Cl (stereo not shown)	0.33
Cc1ccc(N(CC2=NCCN2)c2cccc(O)c2)cc1	0.23
